# Experimental data of several laboratories.
# Every numbered part comes from another study and shows a few of its results, in no order.
# Sequence of UniProt Q5XXA6 (whole entry, unmodified, looked up): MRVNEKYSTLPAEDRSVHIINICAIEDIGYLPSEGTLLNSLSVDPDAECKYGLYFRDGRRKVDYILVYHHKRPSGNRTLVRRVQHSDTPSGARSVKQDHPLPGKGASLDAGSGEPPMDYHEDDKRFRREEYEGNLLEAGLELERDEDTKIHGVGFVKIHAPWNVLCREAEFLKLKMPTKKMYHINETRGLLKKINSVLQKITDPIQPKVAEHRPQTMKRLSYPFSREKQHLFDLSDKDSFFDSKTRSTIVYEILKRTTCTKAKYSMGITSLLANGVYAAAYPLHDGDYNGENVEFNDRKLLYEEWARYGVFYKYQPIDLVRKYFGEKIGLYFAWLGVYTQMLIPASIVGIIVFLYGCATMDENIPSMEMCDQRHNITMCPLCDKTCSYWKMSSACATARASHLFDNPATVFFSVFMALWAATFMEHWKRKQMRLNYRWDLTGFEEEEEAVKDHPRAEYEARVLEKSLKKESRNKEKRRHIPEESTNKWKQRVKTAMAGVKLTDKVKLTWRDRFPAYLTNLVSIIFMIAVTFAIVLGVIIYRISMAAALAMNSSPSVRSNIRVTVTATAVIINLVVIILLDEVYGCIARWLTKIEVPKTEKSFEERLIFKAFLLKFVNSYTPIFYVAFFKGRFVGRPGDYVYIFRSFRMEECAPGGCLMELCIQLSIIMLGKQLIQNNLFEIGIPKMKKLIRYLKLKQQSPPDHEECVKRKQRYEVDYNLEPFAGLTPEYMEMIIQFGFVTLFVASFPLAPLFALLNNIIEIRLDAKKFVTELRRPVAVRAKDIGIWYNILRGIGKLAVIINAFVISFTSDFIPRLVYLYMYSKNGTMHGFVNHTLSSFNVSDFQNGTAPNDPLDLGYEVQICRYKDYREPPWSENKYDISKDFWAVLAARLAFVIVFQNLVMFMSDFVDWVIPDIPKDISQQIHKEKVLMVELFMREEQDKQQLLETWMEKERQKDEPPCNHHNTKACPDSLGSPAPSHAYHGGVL

# Block 1
# Cell line: HaCaT
# Concentration: 100 µM
# Time: 18 h
Compound,viability
O=C1NCC2(CCN(CCc3ccccc3)CC2)O1,107%
COC(=O)Nc1nc2cc(C(=O)c3ccc(F)cc3)ccc2[nH]1,60.1%
CC(C)C(=O)Nc1ccc([N+](=O)[O-])c(C(F)(F)F)c1,75.1%
CC1=C(/C=C/C(C)=C/C=C/C(C)=C/C=C/C=C(C)/C=C/C=C(C)/C=C/C2=C(C)CCCC2(C)C)C(C)(C)CCC1,36.7%
Cc1ccc(Cl)c(Nc2ccccc2C(=O)O)c1Cl,70%
Cc1c(OCC(F)(F)F)ccnc1C[S+]([O-])c1nc2ccccc2[nH]1 (stereo not shown),75.1%
S=C1SCN(Cc2ccccc2)CN1Cc1ccccc1,68.3%

# Block 2
# SMILES: C=CCc1ccc(O)c(-c2cc(CC=C)ccc2O)c1
# Observed: chloride current
# Technique: whole-cell voltage clamp
target,mode,concentration,setting,IC50 [µM]
"Anoctamin-1 (ANO1, Homo sapiens, UniProt Q5XXA6, del476-501/M544I)",inhibitor,80 mV holding voltage,,190
"Anoctamin-1 (ANO1, Homo sapiens, UniProt Q5XXA6, D383A/del476-501)",,,membrane voltage -40 mV,24.5
"Anoctamin-1 (ANO1, Homo sapiens, UniProt Q5XXA6, del476-501/F623A)",,,membrane voltage -100 mV,65.8
"Anoctamin-1 (ANO1, Homo sapiens, UniProt Q5XXA6, del476-501/E649K)",inhibitor,,E623K mutant at 40 mV,124
"Anoctamin-1 (ANO1, Homo sapiens, UniProt Q5XXA6, del476-501/M544V)",inhibitor,20 mV holding voltage,,65.4
"Anoctamin-1 (ANO1, Homo sapiens, UniProt Q5XXA6, del476-501/R541I)",inhibitor,,R515I mutant at 20 mV,48.4

# Block 3
# Cell line: normal adjacent epithelium patient-derived organoids
# Technique: CellTiter-Glo
# Concentration: 0.1 µM
# Setting: mean of five organoid lines
# Relative to: DMSO
SMILES,viability [%]
CCOC(=O)c1cc2cc(-c3cc(C(=O)NCc4ccc(C(=O)O)cc4)nn3C)ccc2[nH]1,104
Nc1c(C(=O)NCc2ccc(C(=O)NCCCC3CCCCC3)cc2)cnn1-c1ccccc1,123
Cc1c(NC(=O)c2cc(C(N)=O)nc3cc(F)ccc23)c(C(F)(F)F)nn1Cc1ccc(C(C)(C)C)cc1,100
COc1cc(N[C@@H]2CCCC[C@]2(O)C(F)(F)F)ccc1F,113
CC(C)CC(=O)N1CCc2nc(-c3ccc(Br)cc3)nc(N(C)Cc3ccccc3)c2C1,131
COCCOc1nc(-c2ccc(Cl)nc2)nc2c1CN(C(=O)c1ncn3ccccc13)CC2,116
CC(C)(C)OC(=O)N1CCCC1CNC1CCC(c2cc(F)ccc2F)(S(=O)(=O)c2ccc(Cl)cc2)CC1 (stereo not shown),102
CCCOc1ccc([C@H]2[C@H](C(=O)O)[C@@H](c3ccc4c(c3)OCO4)CN2CC(=O)Nc2c(CC)cccc2CC)cc1,119
CN1C(=O)[C@@H](N2CCc3cn(Cc4ccccc4)nc3C2=O)COc2ccccc21,122
O=S(=O)(NC1CCC(c2cc(F)ccc2F)(S(=O)(=O)c2ccc(Cl)cc2)CC1)C(F)(F)F (stereo not shown),101
Nc1cnc(N2CCc3cc(S(=O)(=O)Nc4c(F)cc(Cl)cc4F)cc(N4CCCC4=O)c32)nc1,112
O=C(c1ccc(F)cc1)N1CC(COc2ccc(Br)cc2)(C(=O)O)C1,104
O=C(Nc1ccc(-n2nc(-c3cccnc3)cc2C(F)(F)F)cn1)c1ccc(-c2ccccc2)c(F)c1,110
O=C(NCCCC1CCCCC1)c1ccc(CNC(=O)c2cnn(-c3ccccc3)c2C(F)(F)F)cc1,113
CNC(=O)c1ccc(Nc2ncc(C(F)(F)F)c(NCc3nccnc3N(C)S(C)(=O)=O)n2)cc1,96.9
CS(=O)(=O)N1CCCC(NC(=O)[C@H](CCC2CCCCC2)NC(=O)c2ccc(CNC(=O)c3cnc4ccccn34)cc2)C1 (stereo partly shown),125
CNCc1ccccc1-c1csc([C@H](C)Nc2nc(C)nc3cc(OC)c(OC)cc23)c1,104
O[C@]1(C(F)(F)F)CCCC[C@H]1Nc1ccc(F)cc1,102

# Block 4
# Technique: logD(dd/w) and ALogP
# Setting: MRN method
Compound,lipophilic permeability efficiency
CC[C@H]1NC(=O)[C@H](CC(C)C)NC(=O)[C@H](Cc2ccc(O)cc2)NC(=O)[C@H]2CCCN2C(=O)[C@H](CC2CCCCC2)NC(=O)[C@H](CC2CCCCC2)NC1=O,-0.0445
CC[C@@H]1C(=O)N(C)[C@@H](CC)C(=O)N[C@@H](CC(C)C)C(=O)N2CCC[C@@H]2C(=O)N(C)[C@@H](Cc2ccccc2)C(=O)N[C@@H](CC(C)C)C(=O)N1C,3.75
CC(C)C[C@@H]1NC(=O)[C@H](Cc2ccccc2)NC(=O)[C@H]2CCCN2C(=O)[C@H](CC(C)C)NC(=O)[C@H](C)NC(=O)[C@@H](C)NC1=O,1.84
CCC[C@H]1NC(=O)[C@H](CC(C)C)NC(=O)[C@H](Cc2ccccc2)NC(=O)[C@H]2CCCN2C(=O)[C@H](CC2CCCCC2)NC(=O)[C@H](CC2CCCCC2)NC1=O,1.73
CCC[C@@H]1C(=O)N(C)[C@@H](C)C(=O)N[C@@H](CC(C)C)C(=O)N2CCC[C@@H]2C(=O)N(C)[C@@H](C)C(=O)N[C@@H](CC(C)C)C(=O)N1C,3.76
CC[C@@H]1NC(=O)[C@@H](CC(C)C)NC(=O)[C@H](CC(C)C)NC(=O)[C@H](Cc2ccccc2)NC(=O)[C@H]2CCCN2C(=O)[C@H](CC(C)C)NC1=O,1.91

# A few entries again (block 3):
SMILES,viability [%]
O=C(Nc1ccc(-n2nc(-c3cccnc3)cc2C(F)(F)F)cn1)c1ccc(-c2ccccc2)c(F)c1,110
O=C(NCCCC1CCCCC1)c1ccc(CNC(=O)c2cnn(-c3ccccc3)c2C(F)(F)F)cc1,113
CNC(=O)c1ccc(Nc2ncc(C(F)(F)F)c(NCc3nccnc3N(C)S(C)(=O)=O)n2)cc1,96.9
CS(=O)(=O)N1CCCC(NC(=O)[C@H](CCC2CCCCC2)NC(=O)c2ccc(CNC(=O)c3cnc4ccccn34)cc2)C1 (stereo partly shown),125
CNCc1ccccc1-c1csc([C@H](C)Nc2nc(C)nc3cc(OC)c(OC)cc23)c1,104
